Published values from different studies.
Every numbered part comes from another study and shows a few of its results, in no order. Changes are numbered by the printed parent chain.

Set 1
Target: Sal-like protein 4, full length isoform B (SALL4, Homo sapiens, UniProt Q9UJQ4-2, residues 1-616)
Technique: universal PBM
Form: double-stranded DNA, one strand shown
Sample: in vitro
Concentration: not given
Setting: 8-mer, flanks averaged, mean of replicates
Reading: higher = stronger binding
The E-score of `AACTCCAG` is reported as -0.2.
The E-score of `AATTGGCC` is reported as -0.0597.
The E-score of `GATCCCAC` is reported as -0.137.
With `GCCAGAAC` the E-score was -0.178.
`CTTTCGGC` has an E-score of -0.18.
`GGGGATAA` has an E-score of 0.202.
`GCTACAAC` has an E-score of -0.102.
For `AGCAGCAT`, the E-score was -0.0654.

Set 2
Target: Microphthalmia-associated transcription factor, full length (MITF, Homo sapiens, UniProt O75030-10, residues 1-413)
Technique: protein-binding microarray
Form: hairpin DNA
Sample: in vitro
Concentration: not given
Setting: whole hairpin DNA, median over replicate spots
Reference: not given
Reading: higher = stronger binding
For `GAGGCCTAGCACGTACTGCCTCCTGGCAGTACGTGCTAGGCCTCACACTC`, the median fluorescence was 5680 a.u.
`GAGGCCTAGCACGCGCTGCCTCCTGGCAGCGCGTGCTAGGCCTCACACTC (5mC at 30)` has a median fluorescence of 9970 a.u.
`CACTTAGCACGTCGTTTTGGTCCTCCAAAACGACGTGCTAAGTGACACTC (5mC at 13 31)` has a median fluorescence of 4860 a.u.
`CACTTAGCACGTGAGTTTGGTCCTCCAAACTCACGTGCTAAGTGACACTC (5mC at 30)` gave a median fluorescence of 18000 a.u.
`GAGGCCTATCACGTGCTGCCTCCTGGCAGCACGTGATAGGCCTCACACTC` gave a median fluorescence of 25800 a.u.
With `GAGGCCTAGCACGTGCTGCCTCCTGGCAGCACGTGCTAGGCCTCACACTC (5mC at 36)` the median fluorescence was 20600 a.u.
With `GAGGCCTAGCACGTCGTGCCTCCTGGCACGACGTGCTAGGCCTCACACTC (5mC at 15 29)` the median fluorescence was 5820 a.u.
With `GAGGCCTAGCCCGTGCTGCCTCCTGGCAGCACGGGCTAGGCCTCACACTC` the median fluorescence was 7300 a.u.

Set 3
Target: CCNE2, cyclin fold, Cln2 fusion (human)
Technique: yeast growth competition, sequencing
Sample: yeast
Setting: strong parent motif
Reference: not given
Reading: higher = stronger binding
Starting sequence: viral docking peptide; KGVKRKLFAEDSS; partner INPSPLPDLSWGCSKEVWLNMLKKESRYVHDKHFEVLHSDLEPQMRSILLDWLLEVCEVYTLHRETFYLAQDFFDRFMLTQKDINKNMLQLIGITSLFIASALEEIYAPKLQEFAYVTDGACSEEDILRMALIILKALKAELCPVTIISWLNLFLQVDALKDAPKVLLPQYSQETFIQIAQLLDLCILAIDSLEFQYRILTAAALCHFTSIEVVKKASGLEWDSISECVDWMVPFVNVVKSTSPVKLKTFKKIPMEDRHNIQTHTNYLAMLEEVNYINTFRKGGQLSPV
For `S12C`, “normalised enrichment score” read 7.04.
`R5H` — result for “normalised enrichment score”: 0.38.
For `R5W`, “normalised enrichment score” read 0.196.
`S12I`: “normalised enrichment score” 6.95.
`S12W`: “normalised enrichment score” 6.75.
`F8E` — result for “normalised enrichment score”: 0.311.
Under “normalised enrichment score”, `S12Y` is recorded as 6.67.
For `A9N`, “normalised enrichment score” read 6.19.
`R5M`: “normalised enrichment score” 0.713.
For `E10P`, “normalised enrichment score” read 5.87.
For `A9L`, “normalised enrichment score” read 6.3.
`L7I`: “normalised enrichment score” 2.03.
`K4F`: “normalised enrichment score” 1.34.
`A9M` — result for “normalised enrichment score”: 7.04.
`K1A`: “normalised enrichment score” 6.17.
`G2I` — result for “normalised enrichment score”: 4.48.
`E10I`: “normalised enrichment score” 5.
For `A9V`, “normalised enrichment score” read 7.25.
`D11Q` — result for “normalised enrichment score”: 5.77.
`G2R` — result for “normalised enrichment score”: 6.34.
`K6A` — result for “normalised enrichment score”: 4.26.
Under “normalised enrichment score”, `A9T` is recorded as 6.74.
`G2P` — result for “normalised enrichment score”: 6.93.
`L7H`: “normalised enrichment score” 0.229.
For `A9E`, “normalised enrichment score” read 6.71.

Set 4
Target: Transcription factor SOX-2, HMG box (SOX2, Homo sapiens, UniProt P48431, residues 19-118)
UniProt P48431, sequence (19-118, looked up): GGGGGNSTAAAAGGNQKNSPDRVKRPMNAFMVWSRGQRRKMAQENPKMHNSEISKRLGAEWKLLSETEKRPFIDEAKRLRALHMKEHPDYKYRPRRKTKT
Technique: protein-binding microarray
Form: double-stranded DNA, one strand shown
Sample: in vitro
Concentration: not given
Setting: k-mer, scored over probes, only values ≥0.25
Reading: higher = stronger binding
The E-score of `AAAATAA` is reported as 0.267.
The E-score of `GTGAATA` is reported as 0.376.
For `CAATTAG`, the E-score was 0.325.
With `ATGTGAA` the E-score was 0.349.
For `CAATAGA`, the E-score was 0.389.
`AATTATG` gave an E-score of 0.423.
The E-score of `ATTGTAA` is reported as 0.421.
`ATTGTGC` has an E-score of 0.417.

Further values, each from its own experiment
`WAKLLKQKW`: binding “inactive” (HLA class I histocompatibility antigen, A alpha chain, allele A*80:01 (Homo sapiens, UniProt P04439); peptide-MHC binding; peptide; concentration not given).
With CCC(COC(=O)c1cc(OC)c(OC)c(OC)c1)(c1ccccc1)N(C)C.O=C(O)/C=C\C(=O)O (stereo not drawn) the inhibition was -35.2% (Sarcocystis neurona; parasite growth; 10 µM).

Some of these lines once more (set 3):
For `A9N`, “normalised enrichment score” read 6.19.
`R5M`: “normalised enrichment score” 0.713.
For `E10P`, “normalised enrichment score” read 5.87.
For `A9L`, “normalised enrichment score” read 6.3.
`L7I`: “normalised enrichment score” 2.03.
